# Published values gathered from unrelated publications.
# “And” joins repeats or separate records; there may be more than shown. Numbers after ± are the reported error.
Compound,assay,test system,conditions,how to read,quantity,value
C[C@@H](Oc1ccc(S(C)(=O)=O)cc1C(=O)N1C[C@@H]2C[C@]2(c2cc(C(F)(F)F)on2)C1)C(F)(F)F,,"healthy young humans, plasma","oral, 50 mg single dose",,%AUC extrapolated,30.6%
C=CC(=O)Nc1cc(Nc2nccc(-c3cn(C4CC4)c4ccccc34)n2)c(OC)cc1N(C)CCN(C)C,,"BALB/c nude mouse, LU0387 xenograft, serum","oral, 40 mg/kg",,TCHO level,4.63 ± 0.47 mmol/L
Cc1nc(C)c(-c2ccnc(Nc3ccc(N(C)C)c(Cl)c3)n2)s1,,octanol/buffer,"67 µM, pH 7.4",,logD,4.57
CO[C@@H]1[C@H](OC(=O)N2CC(CCN3CCOCC3)C2)CC[C@]2(CO2)[C@H]1[C@@]1(C)O[C@@H]1CC=C(C)C,,human,"dose not given, day 28, multiple ascending dose",baseline: baseline,diastolic blood pressure change,-1.7 ± 6.5 mmHg
Cc1cc(-c2nccc3c2ccn3CC(=O)Nc2ccc(-c3cnccn3)cn2)ccn1,,human,"5 mg once daily, multiple ascending dose",,musculoskeletal disorders,0%
c1ccc(CN2CCCN3CCN(Cc4ccccc4)CCCN(CC2)Cc2cccc(n2)C3)cc1,,64Cu complex in rat plasma,"24 h, 37 °C",,intact complex,97%
CCOC(=O)N1C[C@@H](c2cnc(-c3ccccc3)nc2)N[C@@H](c2ccc(-c3ccccc3)cc2)C1,"shake-flask, 1-octanol/buffer",,pH 7.4,,logD,> 4.7
CC(C)(C)c1ccc(O)c(CN(Cc2cc(C(C)(C)C)ccc2O)C2CCC(NC(N)=O)CC2)c1 (centres unmarked),,mouse brain,"2000 ng/g, time not given, freeze-thaw, 3 cycles, -20 °C",,recovery,92.68 ± 0.56%
OCc1nc2ccc(NCc3ccc(C(F)(F)F)cc3)cc2[nH]1,,"Balb/c mouse, male, lungs","intravenous, 1 mg/kg, 6 h",,tissue concentration,21.8 ± 6 ng/g
NC(N)=NCCC[C@@H](N)C(=O)N[C@@H](CCCN=C(N)N)C(=O)N1CCC[C@H]1C(=O)N1C[C@H](O)C[C@H]1C(=O)NCC(=O)N[C@@H](Cc1cccs1)C(=O)N[C@@H](CO)C(=O)N1Cc2ccccc2C[C@@H]1C(=O)N1[C@H](C(=O)N[C@@H](CCCN=C(N)N)C(=O)O)C[C@@H]2CCCC[C@@H]21,popPK full model estimate,human,subcutaneous,,absorption rate constant (ka),3.27 h⁻¹
O=C(Nc1nc2cccc(-c3ccc(CN4CCS(=O)(=O)CC4)cc3)n2n1)C1CC1,refers to: ear and labyrinth disorders,human rheumatoid arthritis patients,"oral, 300 mg once daily, 4 weeks, regardless of relatedness",,treatment-emergent adverse events,0%
CNC(=O)c1ccc(-c2cnc3ncc(Cc4ccc5ncccc5c4)n3n2)cc1F,,"human, moderate NCI classification, plasma","oral, 200 mg, adjusted geometric mean",,Cmax,1940 ng/mL
CC(C)n1c(Nc2cccnc2)nc2cnc(Nc3ccc(N4CCN(C)CC4)cc3)nc21,refers to: alanine aminotransferase increased,"healthy human, male","oral, dose not given, CTCAE grade 1-3",,subjects with TEAE,11.9%
C=CC(=O)Nc1cc(Nc2nccc(-c3cn(C)c4ccccc34)n2)c(OC)cc1N(C)CCN(C)C,UHPLC-MS/MS,"human, plasma","oral, 80 mg once daily",,trough concentration,229 ng/mL and 212 ng/mL and 185 ng/mL and 198 ng/mL and 205 ng/mL and 201 ng/mL and 167 ng/mL and 252 ng/mL
COc1ccc2c(c1)CN(C(=O)CCN1CCC(Cc3ccccc3)CC1)CC[S@@+]2[O-],telemetry,conscious dog,"intravenous, 8 mg/kg, 24 h",,heart rate,85 ± 14 beats/min
c1ccc(-c2ccc([C@H]3COC[C@@H](C4CCCCC4)N3)cc2)cc1,"shake-flask, 1-octanol/buffer",,pH 7.4,,logD,> 4.7
Cc1cc(Nc2cc3ncccc3c(N[C@@H]3C[C@H]4CC[C@@H](C3)N4CCC#N)n2)n[nH]1,,healthy human subjects,"oral, 1000 mg, 2 weeks, single ascending dose",,skin subcutaneous disorders incidence,0%
CC(C)(C(=O)N1CCOc2c(C#N)cncc2C1)C(F)F,refers to: vessel puncture site hypoaesthesia,"healthy humans, both sexes","oral, 10 mg single dose",,subjects with TEAE,0%
CNCCOC12CC3(C)CC(C)(CC(Cn4ncc(-c5ccc(N6CCc7cccc(C(=O)Nc8nc9ccccc9s8)c7C6)nc5C(=O)O)c4C)(C3)C1)C2,,"beagle dog, male, anaesthetised","intravenous bolus, 0.03 mg/kg, 90 min",baseline: baseline,mean arterial pressure change,1%
Cl.[2H]C([2H])([2H])CC(=O)c1cnc(NC(=O)C2CC2)cc1Nc1cccc(-c2ncn(C([2H])([2H])[2H])n2)c1OC,geometric mean,human,"oral, 50 mg single dose, fasted, liquid",,Vz/F,130 L
C=CCN1CC(=O)N2[C@@H](Cc3ccc(O)cc3F)C(=O)N(Cc3cccc(N4CC(N5CCN(CC)CC5)C4)n3)C[C@@H]2N1C(=O)NCc1ccccc1,,advanced solid tumour patients,"oral, 20 mg twice daily, any grade, dose-escalation",,treatment-related diarrhoea,0%
C=CC[C@@H]1/C=C(\C)C[C@H](C)C[C@H](OC)[C@H]2O[C@@](O)(C(=O)C(=O)N3CCCC[C@H]3C(=O)O[C@H](/C(C)=C/[C@@H]3CC[C@@H](O)[C@H](OC)C3)[C@H](C)[C@@H](O)CC1=O)[C@H](C)C[C@@H]2OC,calcium-selective electrode,"Wistar Kyoto rat, male, heparinized whole blood","ip, 0.5 mg/kg/day, day 28",,free Ca2+,1.21 ± 0.06 mmol/L
C=CC(=O)N1CCC([C@@H]2CCNc3c(C(N)=O)c(-c4ccc(Oc5ccccc5)cc4)nn32)CC1,,rat plasma,"2 ng/mL, three freeze-thaw cycles",baseline: nominal concentration,stability relative error,-1.2%
CCOC(=O)N1C[C@@H](c2ccccc2O)N[C@@H](c2cc(Cl)cc(Cl)c2)C1,"shake-flask, 1-octanol/buffer",,pH 7.4,,logD,> 4.7
CO[C@H]1C[C@@H]2CC[C@@H](C)[C@@](O)(O2)C(=O)C(=O)N2CCCC[C@H]2C(=O)O[C@H]([C@H](C)C[C@@H]2CC[C@@H](O)[C@H](OC)C2)CC(=O)[C@H](C)/C=C(\C)[C@@H](O)[C@@H](OC)C(=O)[C@H](C)C[C@H](C)/C=C/C=C/C=C/1C,,healthy adult horses,"oral, 0.06 mg/kg, 4 h",,rectal temperature,37.3 ± 0.3 °C
CC(C)(F)C[C@H](N[C@@H](c1ccc(-c2ccc(S(C)(=O)=O)cc2)cc1)C(F)(F)F)C(=O)NC1(C#N)CC1,,PBS,"100 µM, 23 h, pH 8, 37 °C, with: cysteine 10 mM",,cysteine adduct formation,48%
CCOc1c([C@H](C)n2nc(C)c3c(N)ncnc32)cc(Cl)c(F)c1[C@@H]1CNC(=O)C1,refers to: QTcF > 500 ms,previously treated B-cell malignancy,"oral, dose not given, all doses, overall population",,share of patients,0%
COc1cccc(-c2cccc(Nc3nccc(NC(C)C)n3)c2)c1,,MDCKII-WT cells,"10 µM, pH 7.4",baseline: Papp B-A over A-B,efflux ratio,1.66
C=CCn1c(=O)c2cnc(Nc3ccc(N4CCN(C)CC4)cc3)nc2n1-c1ccc2c(n1)[C@@](O)(CC)CC2,,"female NOD/SCID mouse OVCAR-3 xenograft, plasma","oral, 100 mg/kg once daily, :4",,AUC(0-24),41900 ng·h/mL
CCCCCN1C[C@H](O)[C@@H](O)[C@H](O)[C@@H]1CO,LC-MS/MS,"Hexb-/- mice, female, brain",300 mg/kg/day,,geometric mean brain concentration,268 ng/g
CCN1/C(=C/C(C)=O)Sc2ccc(F)cc21,,cynomolgus monkey,"oral, 30 mg/kg, 1 h post-dose",baseline: pre-dose,PR interval change,101 ± 3.8%
COc1ncc(-c2nc3c(n2C(C)C)[C@H](c2ccc(Cl)cc2)N(c2cc(Cl)cn(C)c2=O)C3=O)c(OC)n1,,"human patients, plasma","oral, 25 mg, low-dose arm, cycle 2 day 1",,median half-life,18.5 h
C[Si](C)(C)O[Si](C)(C)C,,1-octanol/water,concentration not given,,enthalpy of phase change,4.64 kcal/mol
COc1ccc2c(=O)n(C)c(-c3ccccc3)nc2c1,,"Sprague-Dawley rat, male, stomach","oral, 30 mg/kg, 0.5 h",baseline: stomach over plasma,tissue/plasma ratio,424
O=C(O)CCC(=O)O.[2H]C([2H])([2H])Oc1cc(C)c2[nH]ccc2c1CN1CC[C@@H](C2CC2)C[C@H]1c1ccc(C(=O)O)cc1,,healthy Chinese subjects,"dose not given, multiple ascending dose pooled",,subjects with drug-related TEAEs,32.5%
CC[C@H](C)[C@H](NC(=O)[C@H](Cc1ccccc1)NC(=O)[C@H](CCC(=O)O)NC(=O)[C@H](CCCCNC(=O)COCCOCCNC(=O)COCCOCCNC(=O)CC[C@H](NC(=O)CCCCCCCCCCCCCCCCC(=O)O)C(=O)O)NC(=O)[C@H](C)NC(=O)[C@H](C)NC(=O)[C@H](CCC(N)=O)NC(=O)CNC(=O)[C@H](CCC(=O)O)NC(=O)[C@H](CC(C)C)NC(=O)[C@H](Cc1ccc(O)cc1)NC(=O)[C@H](CO)NC(=O)[C@H](CO)NC(=O)[C@@H](NC(=O)[C@H](CC(=O)O)NC(=O)[C@H](CO)NC(=O)[C@@H](NC(=O)[C@H](Cc1ccccc1)NC(=O)[C@@H](NC(=O)CNC(=O)[C@H](CCC(=O)O)NC(=O)C(C)(C)NC(=O)[C@@H](N)Cc1cnc[nH]1)[C@@H](C)O)[C@@H](C)O)C(C)C)C(=O)N[C@@H](C)C(=O)N[C@@H](Cc1c[nH]c2ccccc12)C(=O)N[C@@H](CC(C)C)C(=O)N[C@H](C(=O)N[C@@H](CCCNC(=N)N)C(=O)NCC(=O)N[C@@H](CCCNC(=N)N)C(=O)NCC(=O)O)C(C)C,,Japanese subjects,"0.5 mg, moderate adverse events",,subjects with adverse events,12.5%
CN1CCN(c2cccc(-c3ccc4ncnc(Nc5ncco5)c4c3)c2)CC1,,human liver microsomes,,,CLint,34 µL/min/mg
Cc1cc(NC2CCN(C(=O)OC3CCN(C(=O)/C=C/CN(C)C)C3)CC2)n2ncc(C(C)C)c2n1 (centres unmarked),,patients with advanced solid tumours,"dose not given, QD arm, any grade",,patients with adverse events,98%
CCC(C)n1ncn(-c2ccc(N3CCN(c4ccc(OCC5COC(Cn6cncn6)(c6ccc(Cl)cc6Cl)O5)cc4)CC3)cc2)c1=O (centres unmarked),,healthy human volunteers,"oral, 200 mg, event Nausea, continued dosing",,adverse events,0%
CN(C(=O)n1cnc(-c2cccnc2)c1)C1CCCCC1,,"Wistar rat, medulla oblongata","oral, 10 mg/kg/day of BIA 10-2474, 24 h, repeated 5 days",,concentration,7.3 ± 0.2 ng/g
CSc1ccc(S(=O)(=O)NCc2ccccn2)cc1,,octanol/buffer,pH 7.4,,logD,2.19
COc1cc(C(=O)N2CCC3(CC2)CC(=O)c2c(cnn2C(C)C)C3)cc(-c2ccc(C(=O)O)cc2)n1,direct measurement,"human, fasting serum","100 mg once daily, day 13, adjusted geometric mean",baseline: placebo,LDL cholesterol change from baseline,-8.4%
CC1(CNC(=O)c2ccc(-c3ccc(Br)cc3)cc2)NC(=O)NC1=O (centres unmarked),,octanol/buffer,pH 7.4,,logD,3.23
CN(CCC(=O)O)C(=O)c1ccc2c(c1)CC[C@@H]1[C@@H]2CC[C@]2(C)C(c3cncc(F)c3)=CC[C@@H]12,,"premenopausal women, endometriosis pain, serum","60 mg twice daily, visit 5, median",,total bilirubin,0.8 mg/dL

# For quick reference, copied from above:
Compound,assay,test system,conditions,how to read,quantity,value
CCN1/C(=C/C(C)=O)Sc2ccc(F)cc21,,cynomolgus monkey,"oral, 30 mg/kg, 1 h post-dose",baseline: pre-dose,PR interval change,101 ± 3.8%
COc1ncc(-c2nc3c(n2C(C)C)[C@H](c2ccc(Cl)cc2)N(c2cc(Cl)cn(C)c2=O)C3=O)c(OC)n1,,"human patients, plasma","oral, 25 mg, low-dose arm, cycle 2 day 1",,median half-life,18.5 h
C[Si](C)(C)O[Si](C)(C)C,,1-octanol/water,concentration not given,,enthalpy of phase change,4.64 kcal/mol
COc1ccc2c(=O)n(C)c(-c3ccccc3)nc2c1,,"Sprague-Dawley rat, male, stomach","oral, 30 mg/kg, 0.5 h",baseline: stomach over plasma,tissue/plasma ratio,424
O=C(O)CCC(=O)O.[2H]C([2H])([2H])Oc1cc(C)c2[nH]ccc2c1CN1CC[C@@H](C2CC2)C[C@H]1c1ccc(C(=O)O)cc1,,healthy Chinese subjects,"dose not given, multiple ascending dose pooled",,subjects with drug-related TEAEs,32.5%
CC[C@H](C)[C@H](NC(=O)[C@H](Cc1ccccc1)NC(=O)[C@H](CCC(=O)O)NC(=O)[C@H](CCCCNC(=O)COCCOCCNC(=O)COCCOCCNC(=O)CC[C@H](NC(=O)CCCCCCCCCCCCCCCCC(=O)O)C(=O)O)NC(=O)[C@H](C)NC(=O)[C@H](C)NC(=O)[C@H](CCC(N)=O)NC(=O)CNC(=O)[C@H](CCC(=O)O)NC(=O)[C@H](CC(C)C)NC(=O)[C@H](Cc1ccc(O)cc1)NC(=O)[C@H](CO)NC(=O)[C@H](CO)NC(=O)[C@@H](NC(=O)[C@H](CC(=O)O)NC(=O)[C@H](CO)NC(=O)[C@@H](NC(=O)[C@H](Cc1ccccc1)NC(=O)[C@@H](NC(=O)CNC(=O)[C@H](CCC(=O)O)NC(=O)C(C)(C)NC(=O)[C@@H](N)Cc1cnc[nH]1)[C@@H](C)O)[C@@H](C)O)C(C)C)C(=O)N[C@@H](C)C(=O)N[C@@H](Cc1c[nH]c2ccccc12)C(=O)N[C@@H](CC(C)C)C(=O)N[C@H](C(=O)N[C@@H](CCCNC(=N)N)C(=O)NCC(=O)N[C@@H](CCCNC(=N)N)C(=O)NCC(=O)O)C(C)C,,Japanese subjects,"0.5 mg, moderate adverse events",,subjects with adverse events,12.5%
CN1CCN(c2cccc(-c3ccc4ncnc(Nc5ncco5)c4c3)c2)CC1,,human liver microsomes,,,CLint,34 µL/min/mg
